# Measurements from different studies.
# Protocols differ between the studies behind these lines. Numbers after ± are the reported error.
SMILES,assay,test system,setting,fu
CC#Cc1cncc(-c2ccc3c(c2)[C@@]2(N=C(C)C(N)=N2)[C@]2(CC[C@H](OC)CC2)C3)c1,unbound fraction,rat brain slices,"1 µM, 5 h, artificial interstitial fluid",0.045
COc1ccc([C@@H]2Sc3ccccc3N(CCN(C)C)C(=O)[C@@H]2OC(C)=O)cc1,equilibrium dialysis,human plasma,"2 µM, 20 h, pH 7.4, 37 °C",0.299 ± 0.027
CC(=O)N1CCN(c2ccc(OCC3COC(Cn4ccnc4)(c4ccc(Cl)cc4Cl)O3)cc2)CC1 (stereo not drawn),equilibrium dialysis,"plasma, mouse, CD-1, pooled",,0.0076
C/C(=N\c1ccc(O)cc1)c1cc2ccccc2n1C,ultrafiltration,rat plasma,"200 ng/mL, 1 h, 37 °C",0.007
COc1ccc2cc(CCC[18F])ccc2c1,gel filtration,human plasma,"60 min, 37 °C",0.215
OCc1nc2ccc(NCc3ccc(C(F)(F)F)cc3)cc2[nH]1,rapid equilibrium dialysis,mouse plasma,"2 µM, 4 h, 37 °C",0.107
Cc1cc(C)c(CNC(=O)c2cc(Cl)c3c(c2C)O[C@@](C)([C@H]2CC[C@H](N(C)C)CC2)O3)c(=O)[nH]1,ultracentrifugation,0.1% human alpha-1-acid glycoprotein,"1000 ng/mL, 160 min",0.088
Cc1cnc(N2CC3(CCOCC3)C2)c(C(=O)Nc2ccc(C(=O)N3CCc4cc(C(=O)Nc5c(C)cccc5F)sc4-c4ccccc43)cc2)c1,,mouse plasma,,0.01
Cc1nc2ccc(OCc3ccc(C(F)(F)F)cc3)cc2[nH]1,rapid equilibrium dialysis,mouse brain homogenate,"2 µM, 4 h, 37 °C",0.0375

# For quick reference, copied from above:
SMILES,assay,test system,setting,fu
Cc1cnc(N2CC3(CCOCC3)C2)c(C(=O)Nc2ccc(C(=O)N3CCc4cc(C(=O)Nc5c(C)cccc5F)sc4-c4ccccc43)cc2)c1,,mouse plasma,,0.01
